Assay results of several laboratories.
Every numbered part comes from another study and shows a few of its results, in no order.

Block 1 — technique: RNA Bind-n-Seq; form: RNA; medium: in vitro; concentration: not given; relative to: input RNA pool; direction: higher = stronger binding; quantity: bound/input enrichment
Target: RING finger protein unkempt homolog, zinc fingers 1-6, GST-SBP tag (UNK, Homo sapiens, UniProt Q9C0B0, residues 30-357)
Notes: RNA with constant flanks, human and mouse sites, ends assumed
Target sequence (chain): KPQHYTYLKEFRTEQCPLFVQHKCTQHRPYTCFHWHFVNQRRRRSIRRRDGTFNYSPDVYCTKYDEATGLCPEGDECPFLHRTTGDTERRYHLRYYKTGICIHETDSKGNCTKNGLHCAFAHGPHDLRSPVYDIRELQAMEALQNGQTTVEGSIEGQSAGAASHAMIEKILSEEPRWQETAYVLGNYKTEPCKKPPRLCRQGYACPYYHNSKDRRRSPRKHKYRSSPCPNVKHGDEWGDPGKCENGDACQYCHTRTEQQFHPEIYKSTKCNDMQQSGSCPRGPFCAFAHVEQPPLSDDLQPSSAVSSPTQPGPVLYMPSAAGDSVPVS
Oligonucleotide = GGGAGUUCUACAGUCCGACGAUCGGCUCUGCACAGAAGGGCCUGCAAGUGGAUCUGCAGUCUGACGGGGCAGCAGCAGAAGAUAUAGUGGCAAGUGAGCAGUCUCUAGGCCAAAAACUUGUGAUCUGGGGAACAGAUGUAAAUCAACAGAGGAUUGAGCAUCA; value = 0.319 ratio
Oligonucleotide = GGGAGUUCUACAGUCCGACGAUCCUAAUCCCCUUCGUUGCUCCACCACUGGUCAUGCUGAUGACAAAAACUUAUAUUCCCAUAUUAGCUUUUACUCAGAUGGCUUAUGGAGCCAGUUUCCUAUCUUUCUUGGGUGGGAUCAGACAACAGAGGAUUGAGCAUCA; value = 0.382 ratio
Oligonucleotide = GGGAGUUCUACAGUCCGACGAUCCUGGCUGUUGAAAGACUGUUGGAGCCUCUUGUUACACAGGUUACAACCCUGGUAAACACCAAUAGUAAAGGGCCGUCUAAUAAAAAGAGAGGCCGUUCUAAGAAGGCCCAUGUUUUGGCUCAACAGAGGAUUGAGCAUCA; value = 5.2 ratio
Oligonucleotide = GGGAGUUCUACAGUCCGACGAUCUCAGACACCAUGGUGUGCCAGUCUUCCUCAACUGUAGGUCAGUCAUUCAGUGAACAACACAUUAGCCAACUUCAAGAAAGCAUUCGGGCAGAGAUACCCUGUGAAGAUGAACAAGAGCAACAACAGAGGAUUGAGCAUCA; value = 0.236 ratio
Oligonucleotide = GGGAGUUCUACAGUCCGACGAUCAAAAUACUACAAGCAGGUUUUAAGAGAAUGGGUGUUGACAAAAUAAUUCCUGUGGACAAAUUAGUAAAAGGAAAGUUUCAGGACAAUUUUGAAUUCGUUCAGUGGUUCAAGAAGUUUUUCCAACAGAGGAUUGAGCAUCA; value = 0.532 ratio
Oligonucleotide = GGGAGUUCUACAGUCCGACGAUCAAAGAUGGCACAUCUUGUCUGACUCAACAGUUUUCCAUUCAUGCUGCUUUAUCAGAGCUCAGAAAGAUGGCCUCAGACAGUUUUCAUAAAUGUCAAAGAGGCACAGGACUUCCCAGGCUGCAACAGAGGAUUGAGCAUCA; value = 0.112 ratio
Oligonucleotide = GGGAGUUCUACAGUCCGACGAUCUUGAAGGUGUUAUAUCAGUACAAGGAGAAGCAAUAUAUGGCUCCUCGAGUUUUACAACAGACAUUAAAUUAUAUUAAUCAAGGAGUUUCUCAUGCUCUCACCUGGAAGAAUCUGAAGCCCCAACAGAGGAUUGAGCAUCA; value = 0.413 ratio
Oligonucleotide = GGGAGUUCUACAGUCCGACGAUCCCAUGGACAACAAGCCUUGGGUAACCGGACCAGGCCAAGGGUCUACAAUUCUCCAACGAAUAGCUCCUCUACCCAAGAUUCUAUGGAGGUUGGCCACAGUCACCACUCCAUGACAUCCCUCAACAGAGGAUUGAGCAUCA; value = 0.0554 ratio
Oligonucleotide = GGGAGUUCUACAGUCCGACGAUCGAAGGCUGAUGUGUGCUGGGGAUACUCUGGAAGACAGUGGAAACUAACUUCCUGUUCAAACUGUGAAAAUGUGUAUACCAGAGGACUAACUUAUUUUUGUAAACUACUACUGCUACAUACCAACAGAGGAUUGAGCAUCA; value = 0.0923 ratio
Oligonucleotide = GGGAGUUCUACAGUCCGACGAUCCCAUCAGCCCACCCUAUCCCAUUUUGUCCCAUUCCCGUCUACCCCAGGGCCUACCUUCCCACCUCGCUGCUUCCUCCAGGAAUCAUUGGUGGUGAAUAUGAUGAGAGGCCGAUACUGCCUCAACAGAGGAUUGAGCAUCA; value = 0.272 ratio
Oligonucleotide = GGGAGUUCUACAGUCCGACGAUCUUUCUAUCUUUGAAAAUUUUCAUUUAUGAGUUCCAUGAUAUGUGGUCUAAGAAAGACCAAACAGAUUUCUAUUUUUUUUUUCUUAUAAGUUCGUUGUGUCUAGAGAUUGUUAAUAUUGUACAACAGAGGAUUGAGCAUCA; value = 3.52 ratio

Block 2 — technique: RNA Bind-n-Seq; form: RNA; medium: in vitro; concentration: 365 nM; relative to: no-protein control; direction: higher = stronger binding; quantity: RBNS enrichment (R)
Target: RNA binding protein fox-1 homolog 2, RRM domain, GST-SBP tag (RBFOX2, Homo sapiens, UniProt O43251-10, residues 100-194)
Notes: natural RNA segment, single round, ends assumed
Construct (chain): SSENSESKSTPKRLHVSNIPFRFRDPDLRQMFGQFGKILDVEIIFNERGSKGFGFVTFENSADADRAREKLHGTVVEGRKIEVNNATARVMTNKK
Oligonucleotide = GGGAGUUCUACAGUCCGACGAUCUGAGAGCCAUGCUGUCAGGAGCAAGCUUGCUGCUCCUGUGCUGCCCUGGCCCUGGCCUUGCUUGCCCAUGGUGUGUGUGUCCAGAGGUGUGUGUGAGGCUGCCAGAACAAUGGAAUUCUCGGGUGCCAA; value = 0.694
Oligonucleotide = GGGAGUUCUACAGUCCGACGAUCCUAGCCCCCAAAUCAAAAGCACUGUAUAGCAUUUCACACCGAGCCCCUCACCAAAACUCACACAGUUGCGAGAAGAGCUGCUGUCUGUGGACACGUAGAGAAAGGACAUUUGGAAUUCUCGGGUGCCAA; value = 0.402
Oligonucleotide = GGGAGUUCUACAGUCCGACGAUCGAUACCACAAGUAAAAACUUUAGUUAGUUCAUCUACAAAAGUAUUCAAAAGAAUACAUAGACUGGACACGAAGCUCAAAGGUAGAGUUCGCCUAGCAUGCAUACGAAGCCUGGAAUUCUCGGGUGCCAA; value = 15.9
Oligonucleotide = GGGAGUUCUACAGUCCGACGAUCCAUAUUUUAAUUGCAUAUAACUGUAUAAUAGUCCGUGUUGUUUUCUUGCAUUGACAUGUUUCCUUUUGAAAUGAGGUAAUCAAUUAGGUGGGGAAAAAAAUGUUCUCGACUGGAAUUCUCGGGUGCCAA; value = 0.513
Oligonucleotide = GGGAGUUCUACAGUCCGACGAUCUUUAGUUUACAAAAGUACUGGAAACUAAAUCAUAUUUCUUCCCUCCAAAUUUCACCCAUUCCUGACUUUGAAUCAAUUGCAGAAAUGCAGGUGUGUUACUUUGUUGAUCAUGGAAUUCUCGGGUGCCAA; value = 0.278
Oligonucleotide = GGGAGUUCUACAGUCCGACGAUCUUCCUCUUCAAGAAAAAAAAAGCAGAGUUUUUUUGCUUUUCAACUCUAUUUUGUUCUUAAAUAAGCAAGAAAAUUGCACGUUGUAUUCACUGACGACAACAAAAGCUUAGUGGAAUUCUCGGGUGCCAA; value = 0.992
Oligonucleotide = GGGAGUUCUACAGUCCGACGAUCUCUCUCUAGGGAAUCUCAUUUGUUACAGGUGAGAAGACAGAGGGUUUUAUGGUGCCUGAGUUAGUCCUGUGCCUAACCAGUGGAGUUUCCGUCUCUGUGCUUGCUAAUAGUGGAAUUCUCGGGUGCCAA; value = 0.398
Oligonucleotide = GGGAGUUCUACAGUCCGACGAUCAUCGAGGCCGCCCUCCCAGUCCUGGGUGAAGAUAUUUGGGCCACCAGGGCUCCCUUGGCCCCUUCACGUAGGAAAUAGACACGUGCUUUUUAAUGCAGGACACUUUGAGUUGGAAUUCUCGGGUGCCAA; value = 0.654
Oligonucleotide = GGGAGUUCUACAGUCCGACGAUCAUUAACAGCUGAACACCUGCAACUGCAAAUGUUUUUUGAUCCGACGUACUGAAAUAGGAAGUCAUGCUCUUCCCACCCUCCACCCACCAGAGUGGAACCCGCUGCAAAAUUGGAAUUCUCGGGUGCCAA; value = 1.21
Oligonucleotide = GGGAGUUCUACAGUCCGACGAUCUUUUUUGAGACAGAGUCUCUCUCUGUUGCCCAGGCUGGAGUGCAGUGGCACAAUCUCGGCUCACUGCAGCCUCCGCCUGCCGGGUCAAGCGAUUCUCCUACCUCAGCCUCUGGAAUUCUCGGGUGCCAA; value = 0.277
Oligonucleotide = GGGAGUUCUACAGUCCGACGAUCUCCCUAUUCUGCUGUAGGGGACUAGAUUUCUAAUAGAGAACAUUGGCAUGGUAGCUGAAGCCCACUCCUGUGCAAGCCAUACUGGAACUUCAUAUUGAGAAUAGAAGACGUGGAAUUCUCGGGUGCCAA; value = 0.807
Oligonucleotide = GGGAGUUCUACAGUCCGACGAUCGACCAGCCCUGCAGCCCCCACUCAGCCGGCAGCCAGAUGGCCCCGCAAGGCCUCCAGGGAUGGCCCCUAGCCACAGGCCCUGGCUGAGGUCUCUGGGUCGGUCAGUGACAUGGAAUUCUCGGGUGCCAA; value = 0.377

Block 3 — technique: universal PBM; form: double-stranded DNA, one strand shown; medium: in vitro; concentration: not given; direction: higher = stronger binding; quantity: E-score
Target: Sal-like protein 4, full length isoform B (SALL4, Homo sapiens, UniProt Q9UJQ4-2, residues 1-616)
Notes: 8-mer, flanks averaged, mean of replicates
Oligonucleotide = AGGGGACT; value = -0.14
Oligonucleotide = CGCGAGCA; value = -0.199
Oligonucleotide = AATCGGGC; value = -0.152
Oligonucleotide = CTACGAGA; value = -0.0682
Oligonucleotide = AGTCTCTG; value = -0.217
Oligonucleotide = AATCCCCG; value = -0.0766
Oligonucleotide = GCGTAGAA; value = -0.0278
Oligonucleotide = ACTTAATA; value = 0.339
Oligonucleotide = CGGTTCGA; value = -0.22
Oligonucleotide = ATTAGTAA; value = 0.302
Oligonucleotide = ATGCATGC; value = 0.0965
Oligonucleotide = AGGTCAGC; value = -0.0822
Oligonucleotide = ATGCAAAG; value = 0.122
Oligonucleotide = TGCAACCA; value = -0.185
Oligonucleotide = AATGAACA; value = 0.155
Oligonucleotide = AAAACGCC; value = -0.0132
Oligonucleotide = AACTCCGC; value = -0.188
Oligonucleotide = AATTAACT; value = 0.222
Oligonucleotide = GAAAGCTA; value = -0.0536
Oligonucleotide = AGGAAAAG; value = 0.154
Oligonucleotide = CAGCACAC; value = -0.186
Oligonucleotide = AATTTGAG; value = 0.192
Oligonucleotide = GCGTAAAA; value = 0.182
Oligonucleotide = GCACCCCC; value = -0.296
Oligonucleotide = ATGAGGAC; value = 0.0152

Block 4 — technique: protein binding microarray; form: double-stranded DNA, one strand shown; medium: in vitro; concentration: not given; relative to: not given; direction: higher = stronger binding; quantity: E-score
Target: Histone acetyltransferase KAT6A, winged helix 2, GST fusion (KAT6A, Homo sapiens, UniProt Q92794, residues 85-181)
Notes: 8-mer, flanks averaged, mean of 2 arrays, mostly near background
Construct (chain): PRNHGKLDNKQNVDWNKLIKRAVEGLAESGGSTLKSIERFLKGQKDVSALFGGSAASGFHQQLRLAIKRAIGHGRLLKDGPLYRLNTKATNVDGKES
Oligonucleotide = CCAGTGAA; value = -0.0804
Oligonucleotide = GCCAGCGA; value = 0.116
Oligonucleotide = GTACTGCA; value = -0.0084
Oligonucleotide = CCTGAGCG; value = 0.0908
Oligonucleotide = AACAATAC; value = -0.0167
Oligonucleotide = AGGACGTG; value = -0.0865
Oligonucleotide = ACTGAAGA; value = -0.0453
Oligonucleotide = GCCCATAC; value = 0.0315
Oligonucleotide = GCCGTCCC; value = 0.113
Oligonucleotide = AGTCTGCG; value = -0.0277
Oligonucleotide = CACAGCCC; value = -0.116
Oligonucleotide = AGTACAGG; value = 0.00863
Oligonucleotide = GGTGTGAC; value = -0.0554
Oligonucleotide = CAGCTAAC; value = -0.11
Oligonucleotide = GATGCAAA; value = -0.0225
Oligonucleotide = CAATGGGC; value = -0.0758
Oligonucleotide = CCAGCCCA; value = 0.152
Oligonucleotide = ATCCAAGG; value = -0.0702
Oligonucleotide = TAAGAAGA; value = 0.133

A few entries again (block 4):
Oligonucleotide = GTACTGCA; value = -0.0084
Oligonucleotide = AGTACAGG; value = 0.00863
Oligonucleotide = CACAGCCC; value = -0.116
Oligonucleotide = AACAATAC; value = -0.0167
Oligonucleotide = AGGACGTG; value = -0.0865
Oligonucleotide = AGTCTGCG; value = -0.0277
Oligonucleotide = CCAGTGAA; value = -0.0804
Oligonucleotide = GATGCAAA; value = -0.0225
Oligonucleotide = CCAGCCCA; value = 0.152
Oligonucleotide = TAAGAAGA; value = 0.133
Oligonucleotide = GGTGTGAC; value = -0.0554
